Experimental data pooled from the literature.
Every numbered part comes from another study and shows a few of its results, in no order.
Sequence of UniProt Q13464 (whole entry, looked up): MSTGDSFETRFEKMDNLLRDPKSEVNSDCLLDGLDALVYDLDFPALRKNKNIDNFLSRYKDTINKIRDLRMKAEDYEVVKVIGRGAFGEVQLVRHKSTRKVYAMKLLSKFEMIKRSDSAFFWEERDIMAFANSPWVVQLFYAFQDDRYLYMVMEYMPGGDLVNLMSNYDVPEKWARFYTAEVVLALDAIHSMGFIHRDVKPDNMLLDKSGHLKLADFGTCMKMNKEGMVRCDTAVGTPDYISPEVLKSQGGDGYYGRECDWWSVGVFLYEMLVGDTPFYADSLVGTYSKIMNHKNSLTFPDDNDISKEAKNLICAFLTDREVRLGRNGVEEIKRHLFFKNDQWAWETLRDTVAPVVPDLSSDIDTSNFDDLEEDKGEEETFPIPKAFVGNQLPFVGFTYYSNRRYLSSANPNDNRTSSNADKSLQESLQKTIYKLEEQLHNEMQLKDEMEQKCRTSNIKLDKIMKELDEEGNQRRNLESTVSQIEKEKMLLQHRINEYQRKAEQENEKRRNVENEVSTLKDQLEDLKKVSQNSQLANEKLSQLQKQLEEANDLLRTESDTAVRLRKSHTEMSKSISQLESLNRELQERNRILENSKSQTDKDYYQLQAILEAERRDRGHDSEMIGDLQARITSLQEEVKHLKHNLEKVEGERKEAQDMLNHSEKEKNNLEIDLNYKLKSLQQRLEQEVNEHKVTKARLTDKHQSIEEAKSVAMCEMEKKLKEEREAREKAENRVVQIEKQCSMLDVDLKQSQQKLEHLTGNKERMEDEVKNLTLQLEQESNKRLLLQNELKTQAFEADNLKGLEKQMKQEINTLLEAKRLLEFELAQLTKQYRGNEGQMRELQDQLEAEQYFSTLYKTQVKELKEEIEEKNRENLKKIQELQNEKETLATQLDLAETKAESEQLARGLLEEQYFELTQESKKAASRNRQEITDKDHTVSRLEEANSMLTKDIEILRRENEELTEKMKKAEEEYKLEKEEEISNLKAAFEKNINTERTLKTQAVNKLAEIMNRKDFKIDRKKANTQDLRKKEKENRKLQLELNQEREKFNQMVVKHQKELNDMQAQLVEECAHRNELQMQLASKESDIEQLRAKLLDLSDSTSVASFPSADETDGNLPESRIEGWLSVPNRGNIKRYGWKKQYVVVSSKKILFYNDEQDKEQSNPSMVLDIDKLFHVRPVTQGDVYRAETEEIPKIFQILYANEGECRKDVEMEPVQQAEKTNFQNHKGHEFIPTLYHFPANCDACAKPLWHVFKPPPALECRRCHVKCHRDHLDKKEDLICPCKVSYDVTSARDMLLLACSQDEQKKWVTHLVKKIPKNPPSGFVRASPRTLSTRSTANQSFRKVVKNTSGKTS
Sequence of UniProt P32298 (whole entry, looked up): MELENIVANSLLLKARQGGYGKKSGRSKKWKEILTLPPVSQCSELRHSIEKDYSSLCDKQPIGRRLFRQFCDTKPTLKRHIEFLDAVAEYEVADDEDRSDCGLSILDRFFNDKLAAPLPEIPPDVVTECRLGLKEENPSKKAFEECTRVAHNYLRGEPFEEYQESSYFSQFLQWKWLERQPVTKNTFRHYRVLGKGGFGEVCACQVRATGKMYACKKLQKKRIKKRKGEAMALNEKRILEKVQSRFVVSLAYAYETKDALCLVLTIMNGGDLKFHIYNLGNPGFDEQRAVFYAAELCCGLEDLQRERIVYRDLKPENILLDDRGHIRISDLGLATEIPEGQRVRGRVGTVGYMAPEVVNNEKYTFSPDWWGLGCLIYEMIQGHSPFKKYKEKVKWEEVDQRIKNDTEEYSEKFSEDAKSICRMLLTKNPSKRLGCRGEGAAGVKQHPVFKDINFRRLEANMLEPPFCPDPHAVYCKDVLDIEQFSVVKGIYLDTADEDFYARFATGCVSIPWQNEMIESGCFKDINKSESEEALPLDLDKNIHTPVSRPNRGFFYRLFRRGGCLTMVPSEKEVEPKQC
Sequence of UniProt Q13237 (whole entry, looked up): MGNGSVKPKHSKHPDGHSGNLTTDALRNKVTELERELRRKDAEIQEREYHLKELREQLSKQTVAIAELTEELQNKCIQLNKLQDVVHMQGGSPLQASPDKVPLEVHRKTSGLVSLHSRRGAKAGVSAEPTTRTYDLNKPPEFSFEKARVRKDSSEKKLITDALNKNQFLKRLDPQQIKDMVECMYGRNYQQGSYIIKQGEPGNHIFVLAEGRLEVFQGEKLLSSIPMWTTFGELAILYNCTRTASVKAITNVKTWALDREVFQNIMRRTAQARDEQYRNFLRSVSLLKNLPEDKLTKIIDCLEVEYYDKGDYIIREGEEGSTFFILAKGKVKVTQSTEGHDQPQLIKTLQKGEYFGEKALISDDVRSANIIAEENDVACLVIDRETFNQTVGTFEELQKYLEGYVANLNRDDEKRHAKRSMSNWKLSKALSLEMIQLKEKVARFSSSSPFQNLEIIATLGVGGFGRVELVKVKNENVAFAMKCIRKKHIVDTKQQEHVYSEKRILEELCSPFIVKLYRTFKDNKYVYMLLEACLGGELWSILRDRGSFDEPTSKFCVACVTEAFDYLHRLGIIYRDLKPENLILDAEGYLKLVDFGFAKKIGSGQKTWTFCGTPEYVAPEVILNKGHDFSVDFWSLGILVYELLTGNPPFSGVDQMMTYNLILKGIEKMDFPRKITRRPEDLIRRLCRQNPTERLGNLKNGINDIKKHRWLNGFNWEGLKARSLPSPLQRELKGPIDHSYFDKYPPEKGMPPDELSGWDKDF
Sequence of UniProt Q02750 (whole entry, looked up): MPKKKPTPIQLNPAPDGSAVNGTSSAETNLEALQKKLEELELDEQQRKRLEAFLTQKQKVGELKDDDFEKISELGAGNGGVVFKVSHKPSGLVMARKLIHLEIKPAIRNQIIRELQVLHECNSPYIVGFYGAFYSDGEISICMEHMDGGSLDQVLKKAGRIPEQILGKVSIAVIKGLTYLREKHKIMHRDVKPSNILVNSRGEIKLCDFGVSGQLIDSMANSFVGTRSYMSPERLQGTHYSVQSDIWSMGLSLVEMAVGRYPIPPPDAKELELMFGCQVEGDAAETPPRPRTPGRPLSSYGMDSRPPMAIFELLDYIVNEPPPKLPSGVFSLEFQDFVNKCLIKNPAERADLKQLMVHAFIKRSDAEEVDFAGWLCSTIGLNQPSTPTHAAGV
Sequence of UniProt P35968 (whole entry, looked up): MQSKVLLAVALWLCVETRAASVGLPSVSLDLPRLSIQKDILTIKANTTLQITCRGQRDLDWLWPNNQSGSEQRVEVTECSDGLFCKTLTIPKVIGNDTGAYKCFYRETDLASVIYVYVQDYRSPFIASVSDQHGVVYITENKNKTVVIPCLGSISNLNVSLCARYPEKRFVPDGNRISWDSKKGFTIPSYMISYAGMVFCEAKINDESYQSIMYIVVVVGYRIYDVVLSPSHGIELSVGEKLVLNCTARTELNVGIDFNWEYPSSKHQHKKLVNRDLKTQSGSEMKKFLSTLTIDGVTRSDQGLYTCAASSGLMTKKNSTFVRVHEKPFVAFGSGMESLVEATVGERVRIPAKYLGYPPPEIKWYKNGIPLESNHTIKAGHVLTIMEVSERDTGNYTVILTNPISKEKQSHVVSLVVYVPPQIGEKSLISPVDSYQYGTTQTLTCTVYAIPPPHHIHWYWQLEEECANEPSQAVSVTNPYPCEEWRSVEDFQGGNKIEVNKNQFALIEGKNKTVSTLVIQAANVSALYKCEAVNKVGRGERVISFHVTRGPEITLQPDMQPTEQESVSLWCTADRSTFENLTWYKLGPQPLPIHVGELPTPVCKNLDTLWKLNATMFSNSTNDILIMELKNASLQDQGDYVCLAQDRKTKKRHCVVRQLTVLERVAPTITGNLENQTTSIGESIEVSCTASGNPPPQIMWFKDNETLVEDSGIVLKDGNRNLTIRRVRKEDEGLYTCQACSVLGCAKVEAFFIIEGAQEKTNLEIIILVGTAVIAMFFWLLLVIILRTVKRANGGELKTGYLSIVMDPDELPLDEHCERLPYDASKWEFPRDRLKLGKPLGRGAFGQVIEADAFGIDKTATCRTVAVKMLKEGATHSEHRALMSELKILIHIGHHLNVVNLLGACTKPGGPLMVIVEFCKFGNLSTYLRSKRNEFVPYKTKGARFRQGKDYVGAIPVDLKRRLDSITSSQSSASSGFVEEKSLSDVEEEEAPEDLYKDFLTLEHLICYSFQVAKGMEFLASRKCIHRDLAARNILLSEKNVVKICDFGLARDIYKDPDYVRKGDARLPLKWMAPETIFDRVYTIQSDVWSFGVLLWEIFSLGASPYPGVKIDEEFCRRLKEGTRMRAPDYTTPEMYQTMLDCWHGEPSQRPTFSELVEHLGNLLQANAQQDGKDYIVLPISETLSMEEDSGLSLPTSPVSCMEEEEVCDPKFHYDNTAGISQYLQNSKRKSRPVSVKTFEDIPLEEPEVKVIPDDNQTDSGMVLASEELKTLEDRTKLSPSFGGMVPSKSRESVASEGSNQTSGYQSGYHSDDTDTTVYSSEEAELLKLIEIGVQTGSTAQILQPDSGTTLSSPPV

Sample 1
Target: D(1B) dopamine receptor (DRD5, Homo sapiens, UniProt P21918)
Sequence of UniProt P21918 (whole entry, looked up): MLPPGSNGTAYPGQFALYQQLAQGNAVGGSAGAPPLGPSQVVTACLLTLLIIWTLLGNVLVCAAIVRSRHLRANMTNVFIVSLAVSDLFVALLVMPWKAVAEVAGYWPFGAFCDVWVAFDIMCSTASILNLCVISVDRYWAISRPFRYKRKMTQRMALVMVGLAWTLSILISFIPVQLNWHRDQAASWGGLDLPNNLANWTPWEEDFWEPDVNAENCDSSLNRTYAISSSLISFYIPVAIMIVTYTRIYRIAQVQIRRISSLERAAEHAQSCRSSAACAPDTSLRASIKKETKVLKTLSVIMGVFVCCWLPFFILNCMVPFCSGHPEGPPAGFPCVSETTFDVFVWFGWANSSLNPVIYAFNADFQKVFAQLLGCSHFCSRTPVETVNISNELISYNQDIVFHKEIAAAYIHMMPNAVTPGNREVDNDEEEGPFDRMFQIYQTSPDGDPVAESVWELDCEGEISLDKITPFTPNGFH
Read-out: ligand displacement
Tested at: 10 µM
SMILES | inhibition [%]
CN(C)C(=O)c1sc2nc(N3CCC(S(C)(=O)=O)CC3)cc(C(F)(F)F)c2c1N | -19.7
COc1cc(N[C@@H]2CCCC[C@]2(O)C(F)(F)F)ccc1F | -15
COc1cccc(NC(=O)c2nc3scc(CN(C)Cc4ccccc4)c3c(=O)[nH]2)c1 | 2.81
CC(=O)Nc1ncc(CN2CCC[C@H](Cc3cc(C)nc(C)c3)C2)s1 | 7.69
CN1CCN(c2ccnc(NCCc3ccccc3)n2)CC1 | -20.8
O=c1nc(-c2ccccn2)sc2ccccc12 | 21.5
O=C(N[C@H]1CCCCC/C=C\C2C[C@@]2(C(=O)O)NC(=O)[C@@H]2C[C@@H](Oc3ccncc3)CN2C1=O)OC1CCCC1 (stereo partly drawn) | 11.3
CC1CCN(c2ccnc(NCc3cn(C)cn3)n2)CC1 | 5.03
CCC(=NO)C(C)=Cc1ccc(F)c(C)c1 | 11.8
CN(C)CC#Cc1ccc(OCCCc2sc(N3CCc4cccc(C(=O)Nc5nc6ccccc6s5)c4C3)nc2C(=O)O)c(F)c1 | 40.8
NS(=O)(=O)c1cc(NC(=O)Cc2ccccc2)ccc1Oc1cccc(Cl)c1 | 27.7
CN([C@@H]1CCc2c(CC(=O)O)c3ccccc3n2C1)S(=O)(=O)c1ccc(F)cc1 | 1.94
O=C(NS(=O)(=O)c1ccc(NCC2CCOCC2)c([N+](=O)[O-])c1)c1ccc(N2CCN(Cc3ccc(C(F)(F)F)cc3-c3ccc(Cl)cc3)CC2)cc1Oc1cnc2[nH]ccc2c1 | 9.7
CN1CCN(c2cnc3c(C4CCN(C(=O)c5ccc(OC(F)(F)F)cc5N)CC4)ncnc3c2)CC1 | 4.63
CS(=O)(=O)N1CCCC(NC(=O)[C@H](CCC2CCCCC2)NC(=O)c2ccc(CNC(=O)c3cnc4ccccn34)cc2)C1 (stereo partly drawn) | 23.5
Nc1cnc(N2CCc3cc(S(=O)(=O)Nc4c(F)cc(Cl)cc4F)cc(N4CCCC4=O)c32)nc1 | 7.88
C[C@H](c1ccc(F)cc1)N(Cc1cccc(C(=O)O)c1)C(=O)c1cnc2ccccc2c1 | -1.69
N#CC1(c2ccccn2)CCN(Cc2cc(C(=O)N3CCCC3)c(=O)n3ccccc23)CC1 | -18.3
CN1CCN(C(=O)C(C)(C)c2ccc(C(=O)Nc3cn4cc(-c5cc(C(C)(C)C)cc(C(C)(C)C)c5)ccc4n3)cc2)CC1 | 29.7
CNC(=O)Nc1ccc2c(c1)CC[C@]21OC(=O)N(CC(=O)N(Cc2ccc(F)cc2)[C@@H](C)C(F)(F)F)C1=O | 21.1

Sample 2
Structure (SMILES): O=C1NC(=O)c2c1c1c3ccccc3n3c1c1c2c2ccccc2n1[C@H]1CC[C@@H]3O1
Read-out: enzyme activity
Mode: inhibitor
Tested at: 0.5 µM
Baseline: control
target | remaining activity [%]
Vascular endothelial growth factor receptor 2 (KDR, Homo sapiens, UniProt P35968) | 4.55
Myosin-IIIb (MYO3B, Homo sapiens, UniProt Q8WXR4) | 19.1
Serine/threonine-protein kinase MARK2 (MARK2, Homo sapiens, UniProt Q7KZI7) | 4.88
Dual specificity mitogen-activated protein kinase kinase 1 (MAP2K1, Homo sapiens, UniProt Q02750) | 29.5
G protein-coupled receptor kinase 4 (GRK4, Homo sapiens, UniProt P32298) | 77
Rho-associated protein kinase 1 (ROCK1, Homo sapiens, UniProt Q13464) | 88.7
Serine/threonine-protein kinase PLK3 (PLK3, Homo sapiens, UniProt Q9H4B4) | 52.5
Serine/threonine-protein kinase tousled-like 2 (TLK2, Homo sapiens, UniProt Q86UE8) | 14.1
cGMP-dependent protein kinase 2 (PRKG2, Homo sapiens, UniProt Q13237) | 6.01

Sample 3
Organism: Sarcocystis neurona
Read-out: parasite growth
Tested at: 10 µM
Time: 96 h
Notes: first screen
Baseline: untreated
Compound | log2 fold change
NCCc1ccccn1 | -0.53
CCc1nc(N)nc(N)c1-c1ccc(Cl)cc1 | -3.81
Oc1ccc2c3c1O[C@H]1[C@@H](O)CC[C@@]4(O)[C@@H](C2)N(CC2CCC2)CC[C@]314 | -0.1
CC(O)(CS(=O)(=O)c1ccc(F)cc1)C(=O)Nc1ccc(C#N)c(C(F)(F)F)c1 (stereo not drawn) | 0.0645
C=CCN1CC[C@]23c4c5ccc(O)c4O[C@H]2C(=O)CC[C@@]3(O)[C@H]1C5 | 0.17
NC(=NCc1ccc(Cl)cc1)SCCCc1cnc[nH]1 | -0.34
C[C@]12CC[C@H](O)CC1=CC[C@@H]1[C@@H]2CC[C@]2(C)C(=O)CC[C@@H]12 | -0.0122
CC[C@@H](C(N)=O)N1CCCC1=O | 0.0746
COc1cc2c(cc1OC)[C@@]13CCN4CC5=CCO[C@H]6CC(=O)N2[C@H]1[C@H]6[C@H]5C[C@H]43 | -0.65

Sample 4
Cell line: A-375
Tested at: 100 µM
Time: 36 h
Structure (SMILES) | viability [%]
C[C@]12CC[C@H]3[C@@H](CCC4=CC(=O)CC[C@@]43C)[C@@H]1CC[C@@H]2OC(=O)CCc1ccccc1 | 0.886
COP(=O)(OC)C(O)C(Cl)(Cl)Cl (stereo not drawn) | 73.2
C[C@@H]1[C@H](O)[C@@H](C)/C=C/C=C/CC/C=C/C=C/C=C/C=C/[C@H](O[C@H]2O[C@@H](C)[C@H](O)[C@@H](N)[C@H]2O)C[C@@H]2O[C@](O)(C[C@@H](O)[C@H](O)CC[C@@H](O)C[C@@H](O)C[C@@H](O)CC(=O)O[C@H]1C)C[C@H](O)[C@H]2C(=O)O | 51
CC(C)NCC(O)c1ccccc1Cl (stereo not drawn) | 114

Some of these lines once more (sample 1):
SMILES | inhibition [%]
CC(=O)Nc1ncc(CN2CCC[C@H](Cc3cc(C)nc(C)c3)C2)s1 | 7.69
C[C@H](c1ccc(F)cc1)N(Cc1cccc(C(=O)O)c1)C(=O)c1cnc2ccccc2c1 | -1.69
CN(C)C(=O)c1sc2nc(N3CCC(S(C)(=O)=O)CC3)cc(C(F)(F)F)c2c1N | -19.7
COc1cccc(NC(=O)c2nc3scc(CN(C)Cc4ccccc4)c3c(=O)[nH]2)c1 | 2.81
